Experimental data gathered from unrelated publications.
Parts stem from different laboratories: compare values within a part only.

Series 1 — method: protein binding microarray; molecule type: double-stranded DNA, one strand shown; medium: in vitro; concentration: not given; baseline: not given; reading: higher = stronger binding
Target: Histone acetyltransferase KAT6A, both winged helices, GST fusion (KAT6A, Homo sapiens, UniProt Q92794, residues 1-181)
Setting: 8-mer, flanks averaged, mean of 2 arrays, mostly near background
Target sequence (chain): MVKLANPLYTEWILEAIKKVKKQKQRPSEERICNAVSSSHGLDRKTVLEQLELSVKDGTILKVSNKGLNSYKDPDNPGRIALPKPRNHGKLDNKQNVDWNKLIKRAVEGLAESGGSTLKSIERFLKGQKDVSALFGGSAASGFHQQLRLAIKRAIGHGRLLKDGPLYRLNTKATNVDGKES
The E-score of `CCGACACA` is reported as -0.0556.
For `GTCAATCA`, the E-score was -0.0695.
`TCGTTACA` has an E-score of -0.0978.
With `AAGCACCC` the E-score was -0.0662.
`ACCGAAGT` gave an E-score of -0.043.
With `TGAAGGAA` the E-score was -0.106.
With `CGCTGGTC` the E-score was 0.163.
The E-score of `AGTCCATA` is reported as -0.187.
With `GGCCGTCA` the E-score was 0.205.
With `ATTATCCC` the E-score was -0.14.
The E-score of `ACCGTTTC` is reported as 0.146.
`ATTCGACC` has an E-score of -0.0853.
With `AATACCCT` the E-score was -0.0754.
With `CTCCGATC` the E-score was 0.0651.
With `AAGTGGTC` the E-score was -0.141.
For `AGGACTCA`, the E-score was -0.115.
For `GCAGGTCC`, the E-score was -0.0261.
The E-score of `ACTAGGGG` is reported as -0.152.
With `GAAGTTGC` the E-score was -0.0969.
The E-score of `GTTGTCAA` is reported as -0.167.
With `CCTGGAAA` the E-score was -0.144.
`CCCATGGC` has an E-score of -0.0499.
With `CACAGCCC` the E-score was -0.0839.
`AAAACCGC` gave an E-score of 0.188.
For `ACTAATAT`, the E-score was -0.145.

Series 2 — method: protein-binding microarray; molecule type: double-stranded DNA, one strand shown; medium: in vitro; concentration: 2200 nM top; setting: 60-bp whole probe; added: salmon DNA 0.4 mg/ml; baseline: random background probes; reading: higher = stronger binding; shared flanks, not repeated: GCCTAGCAC … GTCTTGATTCGCTTGACGCTGCTG
Target: Interferon regulatory factor 7, full length, phosphomimetic (IRF7, Homo sapiens, UniProt Q92985, residues 1-503, S471D/S472D/S475D/S476D/S477D/S483D/S484D/S487D)
Target sequence (chain): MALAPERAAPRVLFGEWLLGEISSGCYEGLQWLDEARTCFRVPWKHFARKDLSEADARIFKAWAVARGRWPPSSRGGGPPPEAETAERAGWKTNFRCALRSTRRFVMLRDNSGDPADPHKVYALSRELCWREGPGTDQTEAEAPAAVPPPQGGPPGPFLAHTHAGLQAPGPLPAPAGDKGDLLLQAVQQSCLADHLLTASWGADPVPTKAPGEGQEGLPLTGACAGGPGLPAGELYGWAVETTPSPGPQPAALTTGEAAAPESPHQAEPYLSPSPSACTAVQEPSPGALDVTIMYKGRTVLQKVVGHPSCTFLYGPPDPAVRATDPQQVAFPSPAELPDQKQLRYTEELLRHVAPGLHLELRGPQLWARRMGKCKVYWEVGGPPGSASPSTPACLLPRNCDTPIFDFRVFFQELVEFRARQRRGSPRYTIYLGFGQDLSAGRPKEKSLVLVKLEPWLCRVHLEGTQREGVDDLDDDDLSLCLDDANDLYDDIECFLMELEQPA
For `GACGAATTGGGGTTTCGAGACGTGCTA`, “fitted relative affinity” read 1.72 z-score.
`TTAGAACTGGGCTTTCGATTAGTGCTA` — result for “fitted relative affinity”: 1.68 z-score.
`GGCGGTCTCCTTTTCCTGACGTGCTAG` — result for “fitted relative affinity”: 0.748 z-score.
`GACGGTTTCCTAATGCTGACGTGCTAG`: “fitted relative affinity” 2.02 z-score.
`TTAGGTTTCCCTTTCCTTTAGTGCTAG` — result for “fitted relative affinity”: 5.55 z-score.
`CACGGTATCGGGTATCGGGACGTGCTA`: “fitted relative affinity” -0.0103 z-score.
`GAGGGTATCCTTATCCTGACGTGCTAG` — result for “fitted relative affinity”: 0.25 z-score.
`TCCATCATTGCTTTCTCTTTGTGCTAG` — result for “fitted relative affinity”: 5.14 z-score.
`TCATGTTTCTACTGTCTGACTGTGCTA` — result for “fitted relative affinity”: 2.01 z-score.
`GACGGTCTCGGACTCGGGACGTGCTAG`: “fitted relative affinity” -0.376 z-score.
Under “fitted relative affinity”, `TCATATCTAAGATTCTAACTGTGCTAG` is recorded as 0.585 z-score.
`AGGAAAGTGTTTCTCAACCAGTGCTAG`: “fitted relative affinity” 0.106 z-score.
`GAAGGTATCCTACTGCTGACGTGCTAG` — result for “fitted relative affinity”: 0.105 z-score.
`GACCAGGGGCCACAGCCTCAGTGCTAG`: “fitted relative affinity” -1.83 z-score.
`GACGTTTTCGGACTGGGGACGTGCTAG`: “fitted relative affinity” 3.18 z-score.
For `CCTAGTTTTACTTTCTATCTGTGCTAG`, “fitted relative affinity” read 5.89 z-score.
`TTAGGTATCGACTCTCGGTTAGTGCTA` — result for “fitted relative affinity”: 0.789 z-score.
`TTAGATTTCGGGTTTCGTTTAGTGCTA` — result for “fitted relative affinity”: 7.02 z-score.
`GACGGTAACGGACTGGGGACGTGCTAG`: “fitted relative affinity” -0.739 z-score.

Series 3 — method: RNA Bind-n-Seq; molecule type: RNA; medium: in vitro; concentration: 365 nM; baseline: no-protein control; reading: higher = stronger binding
Target: RNA binding protein fox-1 homolog 2, RRM domain, GST-SBP tag (RBFOX2, Homo sapiens, UniProt O43251-10, residues 100-194)
Setting: natural RNA segment, single round, ends assumed
Residues (chain): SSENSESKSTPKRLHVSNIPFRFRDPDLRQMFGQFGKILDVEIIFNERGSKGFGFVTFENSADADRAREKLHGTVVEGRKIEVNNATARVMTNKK
`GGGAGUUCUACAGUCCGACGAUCUCCAGAAGGACCUAGGAGAGUAGGUGAGCUUUCCAAAGUGAGAGACGAAUCUUUCUUUCUUUUUUUUUUUAAAGGGCAGGAUGGGUAUGCUUUGGGCUUUCUCCUUCUGUUGGAAUUCUCGGGUGCCAA`: “RBNS enrichment (R)” 0.342.
Under “RBNS enrichment (R)”, `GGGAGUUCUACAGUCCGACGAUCAAGAUGAACCAAAGGAUUAGCCUCGCGCUACGUCAUUGCAUCCGCUCCCCCUCGUCCUGACUCAGCUCGGGUGUGUGCAGCAUCAGGCUGUGCCUGCUCCAGAGGCAUGGUGGAAUUCUCGGGUGCCAA` is recorded as 0.446.
`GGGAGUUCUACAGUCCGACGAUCCUGGGUCUGUCCUGACCUCUAGAGGUGAGCUUGCUGCUUGAGGUCUCCCAGCUCCUGACUGUGGCAGCUGUGGUAGUGGCAGUACCAGAAUUAGCCGCUUCUUUUCCUCCUGGAAUUCUCGGGUGCCAA` — result for “RBNS enrichment (R)”: 0.377.
Under “RBNS enrichment (R)”, `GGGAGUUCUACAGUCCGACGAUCGUUCUGCAGCGUCAUGGAGGAUGGGCGGGCGCCAUGCAUGUGCAGGCUCACACUCCCAGCCUCCGCCACGCCACGAGGGACCUGUGACCCAGUGUCAUUCAGUAUUUUGUUGGAAUUCUCGGGUGCCAA` is recorded as 1.79.
`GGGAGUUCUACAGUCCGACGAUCAAGGACAGGACUUGCGACCUUGAAGCCAAAGGAAUCUCACUUGUGGGGCCUCCUUGUCAGCUCUGCUGCUGUCUCAGAGCCAUCUGGAUGAGUGUCCCGACACCCUCUCGUGGAAUUCUCGGGUGCCAA`: “RBNS enrichment (R)” 0.378.
Under “RBNS enrichment (R)”, `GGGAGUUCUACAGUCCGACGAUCAUAUGUGCCUGAUAUUUUGUGGAUACCUCCCCUGCACUGGCAAAACACUAUGCUUUUGGGUGUUAGACUGAAAUAUUUUAAGAGUAUUUAACCUUUCCAGUAUUCUGUUUUGGAAUUCUCGGGUGCCAA` is recorded as 1.94.
`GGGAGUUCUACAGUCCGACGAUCGACCACCCUAUGUCUAUUAAGCCUGAGGGCAGGGGAUCCUGAGCACACUUUGGGCAGAAAUAAGUCACGAUCAUGAAGGAUGGACUGCCUGUCUCACCUGUCCCACAGAAUGGAAUUCUCGGGUGCCAA`: “RBNS enrichment (R)” 0.527.
Under “RBNS enrichment (R)”, `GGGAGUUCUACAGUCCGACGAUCAGCCCCUGGUGUCUGCAGUGGGGGAUUUAAGGCACCCGCUUCCACUUCUUUCUUGUUUGGAGUUUUCUGUUGGAACCGCCGGCGUUGGCUCCGAAGACUUAGCGACGCCAUGGAAUUCUCGGGUGCCAA` is recorded as 0.737.

Series 4 — target: UBE2E3 UBC core domain (UniProt Q969T4); method: yeast two-hybrid; medium: yeast; setting: mostly zero background; baseline: not given; reading: higher = stronger interaction
Sequence of UniProt Q969T4 (whole entry, looked up): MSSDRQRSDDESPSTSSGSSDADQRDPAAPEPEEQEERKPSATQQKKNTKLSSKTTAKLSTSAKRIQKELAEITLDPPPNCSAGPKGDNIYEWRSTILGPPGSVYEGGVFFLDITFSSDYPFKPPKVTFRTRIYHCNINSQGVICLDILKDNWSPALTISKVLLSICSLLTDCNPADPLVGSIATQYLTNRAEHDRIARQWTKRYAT
B1: DZIP3 RING domain (UniProt Q86Y13); chain PDEEEEEEEPCVICHENLSPENLSVLPCAHKFHAQCIRPWLMQQGTCPTCRLHVLLPEEFP
B2: UBOX5 RING domain (UniProt O94941); chain EQPGSILGPECASCKRVFSPYFKKEPVYQLPCGHLLCRPCLGEKQRSLPMTCTACQRPVASQDVLR
B3: RNF19A RING domain (UniProt Q9NV58); chain ISKQIGDFIECPLCLLRHSKDRFPDIMTCHHRSCVDCLRQYLRIEISESRVNISCPECTERFNPHDIR
B4: RNF133 RING domain (UniProt Q8WVZ7); chain DEEINPNGDSCVICFERYKPNDIVRILTCKHFFHKNCIDPWILPHGTCPICKCDILKVLGIQ
B5: RNF121 RING domain (UniProt Q9H920); chain MPTKHLSDSVCAVCGQQIFVDVSEEGIIENTYRLSCNHVFHEFCIRGWCIVGKKQTCPYCKEKVDLKRMFS
B6: SYTL4 RING domain (UniProt Q96C24); chain RGSQHYSDRTCARCQESLGRLSPKTNTCRGCNHLVCRDCRIQESNGTWRCKVCAKEIELKKAT
B7: MAP3K1 RING domain (UniProt Q13233); chain NSIKDEEEQMCPICLLGMLDEESLTVCEDGCRNKLHHHCMSIWAEECRRNREPLICPLCRSKWRSHDFYS
B8: RBCK1 RING domain (UniProt Q9BYM8); chain SLVLNTEPAECPVCYSVLAPGEAVVLRECLHTFCRECLQGTIRNSQEAEVSCPFIDNTYSCSGKLLEREIK
Under “lacZ reporter activity”, `B1 (DZIP3 RING domain)` is recorded as 0.
Under “lacZ reporter activity”, `B2 (UBOX5 RING domain)` is recorded as 0.
For `B3 (RNF19A RING domain)`, “lacZ reporter activity” read 0.
For `B4 (RNF133 RING domain)`, “lacZ reporter activity” read 4470.
`B5 (RNF121 RING domain)`: “lacZ reporter activity” 0.
`KLRKLKEAMLCMVCCEEEINSTFCPCGHTVCCESCAAQLQSCPVCRSRVEHVQHVY (MYLIP RING domain (UniProt Q8WY64))`: “lacZ reporter activity” 0.
For `B6 (SYTL4 RING domain)`, “lacZ reporter activity” read 0.
`B7 (MAP3K1 RING domain)`: “lacZ reporter activity” 0.
Under “lacZ reporter activity”, `B8 (RBCK1 RING domain)` is recorded as 0.

For quick reference, copied from above (series 2):
`TTAGGTTTCCCTTTCCTTTAGTGCTAG` — result for “fitted relative affinity”: 5.55 z-score.
`CACGGTATCGGGTATCGGGACGTGCTA`: “fitted relative affinity” -0.0103 z-score.
`GAGGGTATCCTTATCCTGACGTGCTAG` — result for “fitted relative affinity”: 0.25 z-score.
`TCCATCATTGCTTTCTCTTTGTGCTAG` — result for “fitted relative affinity”: 5.14 z-score.
`TCATGTTTCTACTGTCTGACTGTGCTA` — result for “fitted relative affinity”: 2.01 z-score.
`GACGGTCTCGGACTCGGGACGTGCTAG`: “fitted relative affinity” -0.376 z-score.
Under “fitted relative affinity”, `TCATATCTAAGATTCTAACTGTGCTAG` is recorded as 0.585 z-score.
